Literature values that unrelated publications cite.
Protocols differ between the studies behind these lines. ± gives the spread as reported.
UniProt Q01959, sequence (whole entry, looked up): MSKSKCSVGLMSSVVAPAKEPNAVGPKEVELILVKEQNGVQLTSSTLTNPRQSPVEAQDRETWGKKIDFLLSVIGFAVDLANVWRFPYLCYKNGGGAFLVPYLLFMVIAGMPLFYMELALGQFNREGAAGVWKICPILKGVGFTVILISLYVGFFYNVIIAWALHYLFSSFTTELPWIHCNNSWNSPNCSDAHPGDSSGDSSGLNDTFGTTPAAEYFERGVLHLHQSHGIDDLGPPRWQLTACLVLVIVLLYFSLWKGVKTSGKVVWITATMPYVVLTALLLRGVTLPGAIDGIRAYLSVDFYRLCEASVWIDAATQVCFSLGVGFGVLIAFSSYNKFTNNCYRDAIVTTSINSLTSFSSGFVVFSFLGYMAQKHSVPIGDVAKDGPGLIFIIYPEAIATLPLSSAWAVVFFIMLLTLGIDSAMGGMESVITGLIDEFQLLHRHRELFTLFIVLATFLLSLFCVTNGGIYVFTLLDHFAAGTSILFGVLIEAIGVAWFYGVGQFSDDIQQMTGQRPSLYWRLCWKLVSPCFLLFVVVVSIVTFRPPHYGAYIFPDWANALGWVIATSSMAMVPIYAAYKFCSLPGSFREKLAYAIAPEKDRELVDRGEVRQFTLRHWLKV
UniProt Q9R0C9, sequence (whole entry, looked up): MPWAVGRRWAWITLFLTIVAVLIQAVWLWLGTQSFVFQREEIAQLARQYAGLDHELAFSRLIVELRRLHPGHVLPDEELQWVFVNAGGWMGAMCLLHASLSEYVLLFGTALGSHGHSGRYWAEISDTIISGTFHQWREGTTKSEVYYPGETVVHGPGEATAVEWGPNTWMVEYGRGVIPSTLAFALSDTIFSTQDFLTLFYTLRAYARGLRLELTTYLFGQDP

| Substance | tested on | test | test system | conditions | measurement | result |
| --- | --- | --- | --- | --- | --- | --- |
| CN(Cc1cnc2nc(N)nc(N)c2n1)c1ccc(C(=O)N[C@@H](CCC(=O)O)C(=O)O)cc1 | KB | cell growth |  | 96 h, folic acid-free medium | IC50 | 0.006 µM |
| C=CCN(CC=C)CCc1c[nH]c2ccc(OC)cc12 | Sigma non-opioid intracellular receptor 1 (Sigmar1, Rattus norvegicus, UniProt Q9R0C9) |  |  |  | Ki | 0.301 µM |
| Nc1nc(N)nc(Nc2ccc([As]3SCC(CO)S3)cc2)n1 (centres unmarked) | L6 rat myoblasts | cell growth |  |  | IC50 | 7.78 µM |
| N.N.[Cl][Pt][Cl] | esophageal cancer cell lines, high GLUT1 expression |  |  | 17 cell lines, mean value | IC50 | 28.3 ± 8.2 µM |
| C=C1C[C@H](C)C(=O)N[C@@H](C)C(=O)N(C)[C@H](Cc2c(Br)[nH]c3ccccc23)C(=O)N[C@@H](c2ccc(O)cc2)CC(=O)O[C@@H](C)C[C@@H](C)C1=O | MCF7 | cytotoxicity |  |  | IC50 | 3.4 µM |
| O=[P@]1(S)OC[C@H]2O[C@@H](n3cnc4cc(Cl)c(Cl)cc43)[C@H](O)[C@@H]2O1 | PDE6 | cyclic nucleotide hydrolysis, substrate or inhibitor, isothermal titration calorimetry |  |  | Km or Ki | 24.5 µM |
| O=C(O)CCCO |  | measured: psychomotor skills, drug strength | human | 8 g/70 kg, high doses | onset of effects | ≥ 30 min |
| O=c1c2nc(Br)n([C@@H]3O[C@@H]4CO[P@@](O)(=S)O[C@H]4[C@H]3O)c2nc2[nH]c(-c3ccccc3)cn12 | PDE6 | cyclic nucleotide hydrolysis, substrate or inhibitor, isothermal titration calorimetry |  |  | Km or Ki | 13.8 µM |
| ClC1=C(Cl)[C@]2(Cl)[C@@H]3[C@@H]4C[C@@H]([C@H]5O[C@@H]45)[C@@H]3[C@@]1(Cl)C2(Cl)Cl | PC-12 | cell viability, MTT |  | 1 h | IC50 | 143 µM |
| C[C@@]12OC(=O)[C@]1([C@@H](O)[C@@H]1C=CCCC1)NC(=O)[C@@H]2CCCl | MM1.S | cell growth |  |  | IC50 | 0.007 µM |
| C=CCc1ccc(O)c(-c2cc(O)ccc2O)c1 | human neutrophils | elastase release |  | together with: fMLF | IC50 | 6.9 µM |
| CC[C@H](C)[C@H](NC(=O)[C@@H](N)Cc1ccccc1)C(=O)NCC(=O)N[C@H](C(=O)N[C@@H](CC(C)C)C(=O)N[C@H](C(=O)N1CCC[C@H]1C(=O)N[C@@H](CC(C)C)C(=O)N[C@@H](C)C(=O)N[C@@H](CC(C)C)C(=O)NCC(=O)N[C@@H](C)C(=O)N[C@@H](CC(C)C)C(=O)N[C@H](C(=O)N[C@@H](CCCCN)C(=O)N[C@@H](CC(C)C)C(=O)N[C@@H](Cc1ccccc1)C(=O)N[C@@H](CCCCN)C(N)=O)[C@@H](C)O)[C@@H](C)CC)[C@@H](C)O | HeLa |  |  | literature value | IC50 | ~10 µM |
| Aristolactam IIIa | human neutrophils | elastase release |  | together with: fMLF | IC50 | 0.72 µM |
| C=CCN(CC=C)CCc1c[nH]c2ccccc12 | Sodium-dependent dopamine transporter (SLC6A3, Homo sapiens, UniProt Q01959) | binding |  | together with: [3H]WIN35428 | Ki | 1.41 µM |
| CO[C@H]1C[C@H](O[C@H]2CC[C@@]3(C)[C@@H](C2)C[C@@H]2O[C@]24[C@@H]3[C@H](O)C(=O)[C@]2(C)[C@@H](C3=CC(=O)OC3)CC[C@]42O)O[C@@H](C)[C@@H]1O | MDA-MB-435 | cell viability |  | 72 h | IC50 | 0.2 ± 0.12 µM |
| CCC[C@H](C(=O)c1ccc2c(c1)OCO2)N1CCCC1 | dopamine transporter, rat | dopamine uptake, inhibitor | brain synaptosomes |  | IC50 | 0.382 ± 0.053 µM |
| CC(/C=C/CCCO)=C\[C@@H]1Cc2nc(cs2)[C@@H](C)C[C@@H](NC(=O)OC(C)(C)C)CC(=O)O[C@@H](C)C/C(C)=C/C=C\C(=O)O1 | Jurkat T cells | IL-2 reporter gene |  |  | IC50 | > 1 µM |
| COc1c(OC)c2c(c(CCN(C)C)c1SC)SSSSS2 | MDA-MB-231 | cell growth |  | previously reported | IC50 | 3.6 µM |
| COc1ccc(C[C@H]2COC(=O)[C@@H]2Cc2ccc(O)c(O)c2)cc1OC | neutrophils | superoxide production |  | together with: fMLF | IC50 | 0.3 µM |
| C[C@H]1O[C@@H](O[C@H]2[C@@H](O)C[C@H](O[C@H]3[C@@H](O)C[C@H](O[C@H]4CC[C@@]5(C)[C@H](CC[C@@H]6[C@@H]5C[C@@H](O)[C@]5(C)[C@@H](C7=CC(=O)OC7)CC[C@]65O)C4)O[C@@H]3C)O[C@@H]2C)C[C@H](O)[C@@H]1O | HT-29 | cell viability |  | 72 h | IC50 | 0.28 ± 0.03 µM |
| O=C(OC[C@H]1O[C@@H](OC(=O)c2cc(O)c(O)c(O)c2)[C@H](OC(=O)c2cc(O)c(O)c(O)c2)[C@@H](OC(=O)c2cc(O)c(O)c(O)c2)[C@@H]1OC(=O)c1cc(O)c(O)c(O)c1)c1cc(O)c(O)c(O)c1 | prostate cancer cell lines | BrdU incorporation |  | 2 h | IC50 | ~6 µM |
| CC(C)(C)c1ccc(S(=O)(=O)/C=C/C#N)cc1 | endothelial cell line | I-κB phosphorylation, inhibitor |  | together with: TNF-α | IC50 | 10 µM |
| C=C1[C@H]2[C@@H]([C@@H](C(C)C)C[C@@H]1O)[C@H]1O[C@@H]2C[C@](C)(O)[C@@H](OC(=O)Cc2ccccc2)CC[C@@]1(C)OC(=O)CCC | human neutrophils | elastase release |  | together with: fMLF | IC50 | 2.9 µM |
| CN1C/C(=C\c2ccc(Cl)cc2Cl)C/C(=C/c2ccc(Cl)cc2Cl)C1 | alpha4beta2 nicotinic acetylcholine receptor | binding |  | together with: [3H]nicotine | Ki | > 100 µM |
| COC(=O)C(C)CCC[C@]1(C)CC[C@]2(O1)C(=O)C(C)=C(C)[C@@]2(O)C(C)=O (some centres unmarked) | human neutrophils | elastase release |  | together with: fMLF | IC50 | 3.7 µM |
| CC1(C)CCC(c2ccc(Cl)cc2)=C(CN2CCN(c3ccc(C(=O)NS(=O)(=O)c4ccc(N[C@H](CCN5CCOCC5)CSc5ccccc5)c(S(=O)(=O)C(F)(F)F)c4)cc3)CC2)C1 | MDA-MB-231 | cell growth |  |  | IC50 | 2 µM |

Some of these lines once more:
| Substance | tested on | test | test system | conditions | measurement | result |
| --- | --- | --- | --- | --- | --- | --- |
| CC(C)(C)c1ccc(S(=O)(=O)/C=C/C#N)cc1 | endothelial cell line | I-κB phosphorylation, inhibitor |  | together with: TNF-α | IC50 | 10 µM |
